Measurements gathered from unrelated publications.
Protocols differ between the studies behind these lines. ± marks the error that the study gave.

For CSCC[C@@H]1NC(=O)[C@H](CC(=O)O)NC(=O)CNC(=O)[C@H](CCCNC(=N)N)NC(=O)[C@H](C)NC(=O)[C@H](CCC(=O)O)NC(=O)[C@H](CCCNC(=N)N)NC(=O)[C@@H]2CSSC[C@@H]3NC(=O)[C@H](CO)NC(=O)[C@H]([C@@H](C)O)NC(=O)[C@@H]4CCCN4C(=O)[C@H](C)NC(=O)[C@H](Cc4c[nH]c5ccccc45)NC(=O)[C@H](CC(=O)O)NC(=O)CNC(=O)[C@H](CCCNC(=N)N)NC(=O)CNC(=O)[C@H](CCC(N)=O)NC(=O)[C@@H]4CCCN4C(=O)[C@@H](NC(=O)CNC(=O)C(C)F)CSSC[C@H](NC(=O)CNC(=O)[C@H](C)NC(=O)[C@H](CC(C)C)NC(=O)[C@H](CSSC[C@@H](C(=O)NCC(N)=O)NC(=O)[C@H]([C@@H](C)O)NC(=O)[C@H](CCCNC(=N)N)NC(=O)[C@@H]4CCCN4C1=O)NC(=O)[C@H](CC(=O)O)NC(=O)[C@H](CO)NC(=O)[C@H](CC(=O)O)NC(=O)[C@H](CCC(N)=O)NC(=O)[C@H](CO)NC3=O)C(=O)N[C@@H](C(C)C)C(=O)N2 (stereo partly drawn) [fluorine-18 labelled], the tissue uptake was 0.25 ± 0.04 %ID/g (nude mice U-87 MG xenograft, muscle; intravenous, 2.5 h).
The logD of NCC(=O)O is reported as 0 (pH 7).
Under basal respiration, `H-HGLASTLTRWAHYNALIRAFGGG-NH2 (C-amide)` is recorded as “no effect” (rat, brain homogenate; intravenous, 40 µg/100 g, 3.5 h, with: succinate + rotenone).
CNC(=O)c1ccc(-c2cnn3ccc(C(=O)N(C)c4ccc(Cl)c(C(=O)OC)c4)cc23)cc1 has a Cmax of 531 nM (rat, Wistar or Sprague Dawley, male, plasma, hepatic portal vein; oral, 100 mg/kg).
CC[C@H](C)[C@H](NC(=O)[C@H](Cc1ccccc1)NC(=O)[C@H](CCC(=O)O)NC(=O)[C@H](CCCCNC(=O)COCCOCCNC(=O)COCCOCCNC(=O)CC[C@H](NC(=O)CCCCCCCCCCCCCCCCC(=O)O)C(=O)O)NC(=O)[C@H](C)NC(=O)[C@H](C)NC(=O)[C@H](CCC(N)=O)NC(=O)CNC(=O)[C@H](CCC(=O)O)NC(=O)[C@H](CC(C)C)NC(=O)[C@H](Cc1ccc(O)cc1)NC(=O)[C@H](CO)NC(=O)[C@H](CO)NC(=O)[C@@H](NC(=O)[C@H](CC(=O)O)NC(=O)[C@H](CO)NC(=O)[C@@H](NC(=O)[C@H](Cc1ccccc1)NC(=O)[C@@H](NC(=O)CNC(=O)[C@H](CCC(=O)O)NC(=O)C(C)(C)NC(=O)[C@@H](N)Cc1cnc[nH]1)[C@@H](C)O)[C@@H](C)O)C(C)C)C(=O)N[C@@H](C)C(=O)N[C@@H](Cc1c[nH]c2ccccc12)C(=O)N[C@@H](CC(C)C)C(=O)N[C@H](C(=O)N[C@@H](CCCNC(=N)N)C(=O)NCC(=O)N[C@@H](CCCNC(=N)N)C(=O)NCC(=O)O)C(C)C: “renal and liver toxicity” “no effect” (item: SCr, BUN, AST, ALT; Kunming mice; subcutaneous, 100 nmol/kg once daily, 14 days; reference: saline).
The tissue uptake of CN[C@@](C)(C[18F])C(=O)O is reported as 9.3 ± 1.9 %ID/g (SCID mouse DU-145 xenograft, spleen; 60 min, post injection).
The intrinsic clearance of CCCCCCCCCCCC[N+](C)(C)C is reported as 0.127 mL/h/mg protein (substrate depletion; human liver microsomes; 0.5 µM, 0 to 3 h, 37 °C, with: NADPH).
For CS(=O)(=O)CCCn1c(Cn2c(=O)n(CC(F)(F)F)c3ccncc32)cc2cc(Cl)ccc21, “serious adverse events” read 8% (RSV-infected infants; dose not given, low dose cohorts).
CC[C@H](C)[C@H](NC(=O)[C@@H](N)CCCNC(=N)N)C(=O)N[C@H](C(=O)N1CCC[C@H]1C(=O)N[C@@H](C)C(N)=O)C(C)C has a Tmax of 4 min (healthy volunteers, both sexes, plasma; intravenous infusion, 6.5 mg/kg daily, day 7, multiple ascending dose).
NC(=O)c1nc(F)c[nH]c1=O has a solubility of 87 µg/mL (UV-Vis spectrophotometry; supercritical CO2; 120 min, 318 K, 12 MPa, 659.73 kg/m^3).
For CC1N=C(c2ccccc2F)c2cc(Nc3ccc(S(C)(=O)=O)cc3)ccc2NC1=O (stereo not drawn), the solubility was 34 µM (shake flask; PBS; 24 h, pH 7.4).
O=c1c(O[C@@H]2O[C@H](CO)[C@@H](O)[C@H](O)[C@H]2O)c(-c2ccc(O)c(O)c2)oc2cc(O)cc(O)c12 — result for “PXR protein level increase”: 79.8% (rat, liver; intravenous, 10 mg/kg, 7 days; reference: control).

For quick reference, copied from above:
For CS(=O)(=O)CCCn1c(Cn2c(=O)n(CC(F)(F)F)c3ccncc32)cc2cc(Cl)ccc21, “serious adverse events” read 8% (RSV-infected infants; dose not given, low dose cohorts).
